Published values gathered from unrelated publications.
Each numbered part is a random draw from the data of one study; scales do not carry over between parts.

Series 1
Target: Interferon regulatory factor 5, full length, phosphomimetic (IRF5, Homo sapiens, UniProt Q13568-2, residues 1-514, K96S/S451D/S453D/S456D/S462D)
Technique: protein-binding microarray
Molecule type: double-stranded DNA, one strand shown
Sample: in vitro
Concentration: 250 nM
Notes: 60-bp whole probe
With: salmon DNA 0.4 mg/ml
Reference: random background probes
Reading: higher = stronger binding
Shared flanks, not repeated: GCCTAGCAC … GTCTTGATTCGCTTGACGCTGCTG
`GACGAACAGAGTATCGAGACGTGCTAG` has a log fluorescence of 0.922 z-score.
`TCCTGTATGGATGTGTCTTAGTGCTAG` has a log fluorescence of -0.0889 z-score.
The log fluorescence of `AACGGTTTCGGGTATCGGGACGTGCTA` is reported as 8.49 z-score.
With `TTTGGTATCCTTTTCCTTTAGTGCTAG` the log fluorescence was 1.23 z-score.
With `GACGAACTGAGTATCGAGAGGTGCTAG` the log fluorescence was 1.64 z-score.
The log fluorescence of `GACGACTTCAGTATCGAGACGTGCTAG` is reported as 2.12 z-score.
The log fluorescence of `AGAATTTCCACTTTGACTTAGTGCTAG` is reported as 0.688 z-score.
`GAGGGTGTTCTTTTCTGTTGGTGCTAG` has a log fluorescence of 0.617 z-score.

Series 2
Target: Histone acetyltransferase KAT6A, winged helix 1, GST fusion (KAT6A, Homo sapiens, UniProt Q92794, residues 1-85)
Technique: protein binding microarray
Molecule type: double-stranded DNA, one strand shown
Sample: in vitro
Concentration: not given
Notes: 8-mer, flanks averaged, mean of 2 arrays, mostly near background
Reference: not given
Reading: higher = stronger binding
Construct (chain): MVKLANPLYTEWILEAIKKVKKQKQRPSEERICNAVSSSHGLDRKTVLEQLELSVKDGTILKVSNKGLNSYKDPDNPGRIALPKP
For `GAAAATAC`, the E-score was 0.0119.
`ACCGGGCC` gave an E-score of 0.229.
The E-score of `AACTCGGT` is reported as -0.112.
The E-score of `AAGTTTCT` is reported as -0.221.
`TATGCGGA` has an E-score of 0.133.
`AATCAAAG` has an E-score of -0.0928.
`ACGATAAC` has an E-score of -0.0762.
`CCATGGCA` has an E-score of -0.0569.

Series 3
Target: RNA binding protein fox-1 homolog 2, RRM domain, GST-SBP tag (RBFOX2, Homo sapiens, UniProt O43251-10, residues 100-194)
Technique: RNA Bind-n-Seq
Molecule type: RNA
Sample: in vitro
Concentration: 365 nM
Notes: natural RNA segment, single round, ends assumed
Reference: no-protein control
Reading: higher = stronger binding
Shared flanks, not repeated: GGGAGUUCUACAGUCCGACGAUC … UGGAAUUCUCGGGUGCCAA
Construct (chain): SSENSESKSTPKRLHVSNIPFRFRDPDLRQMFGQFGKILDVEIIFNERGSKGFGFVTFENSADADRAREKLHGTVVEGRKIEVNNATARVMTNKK
`UCGGUUCUUAACACAGGAGACCCGACAAUGAGUGCACAAGUCAUGGACAUUCACGCUCAGUAGCUUAAGGGAAUAUGCGUUGUCUACAAUGGUGACUGAUCUCGAAUCAG` — result for “RBNS enrichment (R)”: 0.464.
Under “RBNS enrichment (R)”, `AAUUCAUAGUAUAUUGUUGUUUGUGACAUGAACUCCAAGAUACACAAAGGAGCCCAGGGAACUAUGUCCCCAGUAGGUUUAACCCAACCAAACACCAGAGGCUGUUAAUU` is recorded as 0.417.
`GGCCAUUUGAGUCUUUGUAACCUAGGAAAGACAAAGGUCUGAUUCAGAUUGCAUGGGGGAUUUUUAACAUAUUUGAAACUCAGGGGGAACAUGAUUAAGAACACAAACUG`: “RBNS enrichment (R)” 5.98.
Under “RBNS enrichment (R)”, `UUCAAGUGAUUCUCCUGCCUCAGCCUCCCAAGUAGCUGGGUUUAUAGGUGCCCGCCACCAGACCCGGCUAAUUUUUUAGUUUUAGUAGAGACGGGGUUUCACCACGUUGG` is recorded as 0.34.
`ACUCUGGAGCCUCCGUCUCUUCGAUUAUAAAGACACCCGUCCUUAAGACAGCCGCUCCUUGGACACUCGGCUGGAAGUCUUUAGUGUGUUCCUCCAUACUACUGAAGCCC`: “RBNS enrichment (R)” 0.495.

Single results of other studies
`PhoQ, residues 284 288 289 292 302 303 SSTLLI` has a fold induction of 3.27 (PhoP, residues 12 14 15 18 19 GHCSL (Escherichia coli, UniProt P23836); Sort-seq, measured: YFP reporter; E. coli; PhoQ-PhoP variant library, with: 10 µM Mg2+; reference: high Mg2+ state, higher = stronger signaling).

Some of these lines once more (series 1):
The log fluorescence of `GACGACTTCAGTATCGAGACGTGCTAG` is reported as 2.12 z-score.
